Experimental data gathered from unrelated publications.
Numbered parts are unrelated; each lists some results of a single study. Substitutions count along the parent as printed.

Series 1
Target: Interferon regulatory factor 7, full length, phosphomimetic (IRF7, Homo sapiens, UniProt Q92985, residues 1-503, S471D/S472D/S475D/S476D/S477D/S483D/S484D/S487D)
Method: protein-binding microarray
Molecule type: double-stranded DNA, one strand shown
Matrix: in vitro
Concentration: 2200 nM top
Setting: 60-bp whole probe
With: salmon DNA 0.4 mg/ml
Relative to: random background probes
Reading: higher = stronger binding
Constant ends, left off below: GCCTAGCAC … GTCTTGATTCGCTTGACGCTGCTG
Target sequence (chain): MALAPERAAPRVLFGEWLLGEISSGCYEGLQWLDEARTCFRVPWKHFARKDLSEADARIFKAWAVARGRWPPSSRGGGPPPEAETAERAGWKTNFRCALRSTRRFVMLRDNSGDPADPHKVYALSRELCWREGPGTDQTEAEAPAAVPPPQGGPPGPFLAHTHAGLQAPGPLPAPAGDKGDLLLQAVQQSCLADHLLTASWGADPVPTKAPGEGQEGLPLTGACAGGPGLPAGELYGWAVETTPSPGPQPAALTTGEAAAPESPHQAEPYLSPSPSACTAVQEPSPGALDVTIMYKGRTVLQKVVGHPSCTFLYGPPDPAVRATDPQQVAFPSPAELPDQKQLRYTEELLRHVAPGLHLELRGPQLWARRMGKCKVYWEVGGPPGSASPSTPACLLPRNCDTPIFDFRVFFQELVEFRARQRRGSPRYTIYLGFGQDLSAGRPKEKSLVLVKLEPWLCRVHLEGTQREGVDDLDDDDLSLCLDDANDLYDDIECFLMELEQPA
Sequence | fitted relative affinity [z-score]
TCACTTTCCACTTGTCTTTTCGTGCTA | 9.98
TGAGCTTACAATATAAAAGGGTGCTAG | -0.96
TTAGGTATCGGTCTCGGTTCGTGCTAG | 1.86
GACGGTTTCGGTTCCGGCACGTGCTAG | 11.1
TTAGATCTCAGACTGGCTTAGTGCTAG | -0.11
GGTCCTCTAGGAATGTAACTGTGCTAG | 0.0387
TCACATCTCTGCTCCTTACTGTGCTAG | 2.43
GACGATATCAGTTTCGAGATGTGCTAG | 4.2
GACGAACTGGGTATCGAGACGTGCTAG | -0.115
TCACATTTTAGTTTTCAACTGTGCTAG | 2.18
TCTCCTCCAGGTTCTCTGACAGTGCTA | 0.94
TTCTTTATGTACTCTCTCCATGTGCTA | 1.62
CACGGTATCGGGTTTCGGGACGTGCTA | 1.61
TCATTTTTCTACTTCTGACTGTGCTAG | 3.62
GACGGTATCGGTTATCGGGACGTGCTA | 0.24
TTAGATATCGGGTTTCGATTCGTGCTA | 6.71
GACGGACTGCTGATCCTGACGTGCTAG | 0.17
TATGTTGTCCAGGCTGGTCTCGTGCTA | 0.667
GACGATTTCAGTATAGAGACGTGCTAG | 0.612
TTAGGTATCCTTCCCCTTTAGTGCTAG | 1.63
GACGATTTCGGGTTTCGAGATGTGCTA | 5.42
GACGAACTGGGTACTGGAGACGTGCTA | -0.535
GACGATTCCAGTTTCGAGTCGTGCTAG | 6.85
TCAAATATATATATTGTACTGTGCTAG | 0.0337
TGGTTTTCCTTATTGCTTCCTGTGCTA | 2.99

Series 2
Target: CCNE1, cyclin fold, Cln2 fusion (human)
Method: yeast growth competition, sequencing
Matrix: yeast
Setting: strong parent motif
Relative to: not given
Reading: higher = stronger binding
Parent: SCAPER docking peptide (human); SNARRSLNFGGST
Variant | normalised enrichment score
L7M | 0.398
S1I | 0.375
N2Y | 0.54
L7A | 0.685
F9H | -0.195
L7Q | 0.689
S6T | 1.96
R5M | 0.943
F9D | 0.324
S12M | 0.253
A3M | 0.878
G11F | 1.02
L7D | 0.435
S12T | 0.861
F9S | -0.421
T13P | 1.8
G10D | 1.11
N8K | 1.21

Series 3
Target: RNA binding protein fox-1 homolog 2, RRM domain, GST-SBP tag (RBFOX2, Homo sapiens, UniProt O43251-10, residues 100-194)
Method: RNA Bind-n-Seq
Molecule type: RNA
Matrix: in vitro
Concentration: 365 nM
Setting: natural RNA segment, single round, ends assumed
Relative to: no-protein control
Reading: higher = stronger binding
Constant ends, left off below: GGGAGUUCUACAGUCCGACGAUC … UGGAAUUCUCGGGUGCCAA
Residues (chain): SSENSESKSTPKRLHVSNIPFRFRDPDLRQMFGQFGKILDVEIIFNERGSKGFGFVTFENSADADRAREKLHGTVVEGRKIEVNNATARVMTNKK
Sequence | RBNS enrichment (R)
UCCUAGGUGACAUUUUAGAAUUAAUACUUAAGUGUUGUUAAAUGGGGACAUGGAGCUUAAUCAUUGGUCAGGUUUGAAGUCUUUUGAAGCUAAGUAAUUUUAUUUAAUAU | 0.662
CUCGGGAGGCUGAGGCAGGAGAAUGGCGUGAACCCAGGAGGCGGAGCUUGCAGUGAGCCGAGAUUGUGCCACUGCACUCCAGCCUGGGCAACAGAGCUAGACUCUGUGUC | 0.269
CUUUAACCUCCCUUCUAGCCCACCACCAACCAGAGAUAGUGGGAAAGAAAGGAUACAGGGGAAGUGGACCUGUUUAGAAAUGGUUCUUUGGAGCAGAUCCUGUCUGCAUU | 0.384
UGCAGCACUGAGCCUCAAAUCCGCUCUGGAGCAUGAGGCUGGAUGCAGUGGUGGUGAGGCCGCCCCGCUCCAUCCCGAGGCAGCCAGGGUUUGUUUUGCGCUCUCCUGUC | 0.209
UUUUUCUCUCUCCAAGGAUUCUUUCCAUAGCCCUGGCUGUCCUGAAACUCAUCCUGUAGAGCAGGCUGGCCUUGAACUCACAGAGCUCCACCUGCCCCUGCCUCUGAUCC | 0.243
AAUCUUACGUGCCCGUAAAGUUGGGAUGUUGAAUUGGCUCUUCUUUGUUCUGGCAGUGAGUCAAGUGUCCAGCAUUUUUUCAUAAGUGUUUUUUAAAAUUGUUCUCCAGC | 0.409
CUGUUAUUUAUGGUGUGACCCCCUGGAGGUGCCCUCGGCCCACCGGGGCUAUUUAUUGUUUAAUUUAUUUGUUGAGGUUAUUUCCUCUGAGCAGUCUGCCUCUCCCAAGC | 0.333
UUUCUCUCCCGUCUCAGUGGCUUCUCUGAGGUGCUGUACACGCGCGUUAACCUGUUCCCUUCUCUAUCCUUCCCCGUGGUACUGAGCUCACGUGGACUCCCAGUGCGAAG | 0.717
CUUUAGUCAGGGCCACACCUUCUGAUGGCAUUCAAAUAUAAGGCUGUGGAAGAAGGAAGCUUUUGCGGUUGUUUCCUUGCUCCUGCUAGUAAGUCCAUGCCUUCAAUAGG | 0.389
GCCCUGCAGCACUGCCCCAAGAAGAAGCUGUGCCUGCCCACUGGCACACAGCUGGCACUGGCACACACCUGUCCCAUGCCCACCCUGAGGGAUCAGGAGCAAACAGACCC | 0.168
GCAUGCACUUGCCCUUAAAAACAAUGAUUUGUGAGUCCAGGAACAAUUUACUAUUUUUAAAAUAUUUUGCUGCUUCUGUUCUGGGUCUGAAUUCCCUUUUGUGCCAGAUG | 9.35
ACUAUAUAAGUAAAGCAAAUAUAUUAGGCCAGGAUCUCACUGAGGAAUUUGUCUUGUCAUCUUUUAGAGUAAACUAAAAAUUGUAUAGUGUCUGCAAACACUACCCUACC | 0.583

Series 4
Target: RING finger protein unkempt homolog, zinc fingers 1-6, GST-SBP tag (UNK, Homo sapiens, UniProt Q9C0B0, residues 30-357)
Sequence of UniProt Q9C0B0 (30-357, looked up): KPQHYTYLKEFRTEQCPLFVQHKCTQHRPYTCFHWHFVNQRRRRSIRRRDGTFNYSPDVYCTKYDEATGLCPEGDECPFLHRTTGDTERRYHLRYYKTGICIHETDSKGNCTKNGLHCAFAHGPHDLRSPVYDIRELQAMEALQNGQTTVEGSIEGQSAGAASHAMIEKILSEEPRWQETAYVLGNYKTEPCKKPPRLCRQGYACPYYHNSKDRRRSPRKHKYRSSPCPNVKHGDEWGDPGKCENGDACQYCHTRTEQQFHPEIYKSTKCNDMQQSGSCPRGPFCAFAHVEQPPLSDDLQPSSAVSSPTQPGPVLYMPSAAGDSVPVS
Method: RNA Bind-n-Seq
Molecule type: RNA
Matrix: in vitro
Concentration: not given
Setting: RNA with constant flanks, ends assumed
Relative to: input RNA pool
Reading: higher = stronger binding
Constant ends, left off below: GGGAGUUCUACAGUCCGACGAUC … CAACAGAGGAUUGAGCAUCA
Sequence | bound/input enrichment [ratio]
UGACUGUUAUGAUUAUCAGAAUGUCUUAACUUUUUAGGGCAAAGUUAACACUGAAAGUUCCCGCUUAAGUGUUGAAACUUUUGUGGGAAAAAAAAAUCACUUUUGAAACUCAGACUUCAG | 0.185
GGUGGGGAGGGCAAUGUGGGGGCAGGGGAACAUGUCAUUGUGAUGACUUUUUUGAUAUUCAUCCGAAACAAUACAUCCUUUCUGAGAUAUUUACAGUAUUAUUAAAAAAUGAAAAAGGUU | 0.793
AUUCAUUUUUAAUUUUAAUUUUAUUUUAUACAACGUGUAGACGGUUCCCUGUUCUCUGCAUUCCGAAGUAUACACAGUACAACUGUUAAUUCUGUAAGUAAUUUUUAUAAUUAUGAUGUA | 6.69
UUGUGUUUUGUACAGGGCAUUCUCUGUACUAGUUUGUCGUGGUUAUAAAACAAUUAGCAGAACCGCCUACAUUUGUAUUUAUUUUCUAUUCCAUACUUCUGCCCACGUUGUUUUCUCUCA | 2.58
CACAAUUGCUCUUACAAUUACAAAGCCGAUGCUGCUGAGAAAAUCAGAAAAGAAAAUCCAGCCGUUGUUGGUGAAAAGAUCCAAAAGAUUUGAACUCCUGCUGGAAUACAAAAUUCUUGA | 0.192
GAGAUACCAGGACAGAGUCAUUGCUACAUAUGUUUGACCUGAUCUAGCCUUUUCCAAAUGAACCGCCUCAACUCUGUUGUAAAGAAAGUUUUAUUUGUAUUUUACUACUAUUGGGUCAAU | 0.941
GUUUUCUAUUCUCCCUCUACCUUAUCCCCCACCCCCACCCCACCCCACCCCUUUUUUAUUCCGUUUUAUUUACUUUACCUAGUAUGGCUUUUUUAGUUGCUUCUCAAGUCAGAAAACUUC | 1.32
ACACACACACACACUCUCUGAGCACAUUAUCUGUGAUUCUUUCAUCCUCCCAGAAAGGAUCAGUGUCCGAAUGGGAAAUAGAGUGUGCCAUCUUGCUCUUUUGUUGGCAGAUGUCCCCGC | 0.758
UCCCAGCACUUUGAUAAAAAGUGUGGACUGGUUGCUUGUAUUUUCCUUAUUCUUUUUAAUCCGUUUUAUUAUGUAUGCUACCAUUCGAACUGAGAGUAUUCGGUGGCUAAUUCCAGGACA | 1.06
UCAUGGAACUUAUGUGUCAAAACAAAGGAACGGGCAGACUGUCCAUCCCAAGCCAGUUCAAUCCGAUGUAAAUUCAUACUGUUUUAAUUUUUUAUGCAAUCUGAUGAGUAGAUGGGCUCA | 0.31
CCUCCUACCAAGGGUCUCCGCAAGGAGGAACGGCCAGGCCCUGGGCCCGGCGAGGUGCGUACCGCUUUCCGAAUCUCCAAUGUCCGAGAGCCCCAUUCACCAGAUGGCAACUUACCCAAU | 0.128
